{"data": "Measurements of several laboratories", "note": "Every numbered part comes from another study and shows a few of its results, in no order."}
{"data": "Sample 1", "target": "Fragile X messenger ribonucleoprotein 1, C-terminal low-complexity region (Fmr1, Mus musculus, UniProt P35922)", "technique": "RNA Bind-n-Seq", "molecule type": "RNA", "matrix": "in vitro", "tested at": "200 nM", "setting": "whole 134-nt RNA, ends assumed", "together with": "150 mM LiCl", "reference": "input library", "direction": "higher = stronger binding", "library": "7-deaza-guanosine replaces G", "shared flanks, not repeated": "GGGAGUUCUACAGUCCGACGAUC … UGGAAUUCUCGGGUGUCAAGG"}
{"Strand": "CCUGUGCUACACAUCGUAUGUACCGAAUCGGGGAAAAAAGGGAAAAAAGGGGAAAAAAGGGAAAGUAUUAUGUUACGCCGUUCGGAUCUG", "log2 enrichment": 0.722}
{"Strand": "UGGCCCUGGUGGCAUGCGGGGAGGAAGAGGUGGCCUCAUGGAUCGUGGUGGUCCCGGUGGAAUGUUCAGAGGUGGCCGUGCUGGAGACAG", "log2 enrichment": -0.848}
{"Strand": "UCCUGUGCUACACAUCGUAUGUACCGAAUCGGGGAGGGGUUUUUGGGGUUUUUUUGGGGAAAGUAUUAUGUUACGCCGUUCGGAUCUGCA", "log2 enrichment": 0.00332}
{"Strand": "CAAGUCCUGUGCUACACAUCGUAUGUACCGAAUCGGAGGUUUUUUUGGAAAAAGGAAAGUAUUAUGUUACGCCGUUCGGAUCUGCACUUC", "log2 enrichment": -1.07}
{"Strand": "CCUGUGCUACACAUCGUAUGUACCGAAUCGGGGAAAAAGGGGAAAAAGGGGAAAAAGGGGAAAGUAUUAUGUUACGCCGUUCGGAUCUGC", "log2 enrichment": 1.08}
{"Strand": "CACAGACAUCACGCACCCACACAGACACAGAGGGAAGGGGUUGGGAUGGGGACAGGGUGCACAGCAGGGCGGGGUAGGACCCCAGCCCCU", "log2 enrichment": 0.786}
{"Strand": "UCAAGUCCUGUGCUACACAUCGUAUGUACCGAAUCGGGCCGGGCCGGGGCCGGGGAAAGUAUUAUGUUACGCCGUUCGGAUCUGCACUUC", "log2 enrichment": -0.198}
{"Strand": "UAUGGACAAGCAUAAUGGAACAGACAGGUUUGUGAACCAGCAGUUUCAAGAGGAAAAGUUAAAUAAAUUGCAGAAGUUACUUAUUCUUUU", "log2 enrichment": -3.24}
{"data": "Sample 2", "target": "TAR DNA-binding protein 43, full length, His tag (TARDBP, Homo sapiens, UniProt Q13148, residues 1-414)", "technique": "RNA Bind-n-Seq", "molecule type": "RNA", "matrix": "in vitro", "tested at": "20 nM", "setting": "6-mer, flanks averaged, single round", "together with": "150 mM KCl", "reference": "input library", "direction": "higher = stronger binding"}
{"Strand": "AUAGAA", "6-mer enrichment (R)": 0.734}
{"Strand": "AGUUCU", "6-mer enrichment (R)": 0.553}
{"Strand": "GAUGGU", "6-mer enrichment (R)": 1.29}
{"Strand": "ACGAUU", "6-mer enrichment (R)": 0.577}
{"Strand": "CGUAUC", "6-mer enrichment (R)": 0.589}
{"Strand": "CACACU", "6-mer enrichment (R)": 0.618}
{"Strand": "UCGCAG", "6-mer enrichment (R)": 0.858}
{"Strand": "AAGAUA", "6-mer enrichment (R)": 0.621}
{"data": "Sample 3", "target": "Hepatocyte nuclear factor 3-beta, forkhead domain (FOXA2, Homo sapiens, UniProt Q9Y261, residues 142-269)", "technique": "protein-binding microarray", "molecule type": "double-stranded DNA, one strand shown", "matrix": "in vitro", "tested at": "not given", "setting": "k-mer, scored over probes, only values ≥0.25", "direction": "higher = stronger binding", "Target sequence (chain)": "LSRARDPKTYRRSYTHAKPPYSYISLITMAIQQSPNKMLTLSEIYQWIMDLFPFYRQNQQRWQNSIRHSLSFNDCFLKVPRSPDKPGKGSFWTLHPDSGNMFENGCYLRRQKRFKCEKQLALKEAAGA"}
{"Strand": "AAATATCT", "E-score": 0.291}
{"Strand": "TTATCCAA", "E-score": 0.281}
{"Strand": "AACTTGAT", "E-score": 0.298}
{"Strand": "ACCTATAT", "E-score": 0.341}
{"Strand": "AAACATAT", "E-score": 0.33}
{"Strand": "AACTAATA", "E-score": 0.378}
{"Strand": "TAATCAAA", "E-score": 0.301}
{"Strand": "GTATCGTA", "E-score": 0.308}
{"data": "Single results of other studies"}
{"Compound": "COc1cc(C(C)=O)ccc1OCCCN1CCC(c2noc3cc(F)ccc23)CC1", "cell line": "A-375", "tested at": "100 µM", "time": "36 h", "endpoint": "viability", "result": "94.4%"}
{"note": "Excerpt of the above (sample 3):"}
{"Strand": "AAATATCT", "E-score": 0.291}
